Results collected from several papers.
Each line is one published result; not all experiments were run side by side. Several values in a cell are separate wells, animals, samples, runs or records. ± marks the error that the study gave.
SLC6A9: Sodium- and chloride-dependent glycine transporter 1 (SLC6A9, Homo sapiens, UniProt P48067)
Chain of UniProt P48067 (whole entry, looked up): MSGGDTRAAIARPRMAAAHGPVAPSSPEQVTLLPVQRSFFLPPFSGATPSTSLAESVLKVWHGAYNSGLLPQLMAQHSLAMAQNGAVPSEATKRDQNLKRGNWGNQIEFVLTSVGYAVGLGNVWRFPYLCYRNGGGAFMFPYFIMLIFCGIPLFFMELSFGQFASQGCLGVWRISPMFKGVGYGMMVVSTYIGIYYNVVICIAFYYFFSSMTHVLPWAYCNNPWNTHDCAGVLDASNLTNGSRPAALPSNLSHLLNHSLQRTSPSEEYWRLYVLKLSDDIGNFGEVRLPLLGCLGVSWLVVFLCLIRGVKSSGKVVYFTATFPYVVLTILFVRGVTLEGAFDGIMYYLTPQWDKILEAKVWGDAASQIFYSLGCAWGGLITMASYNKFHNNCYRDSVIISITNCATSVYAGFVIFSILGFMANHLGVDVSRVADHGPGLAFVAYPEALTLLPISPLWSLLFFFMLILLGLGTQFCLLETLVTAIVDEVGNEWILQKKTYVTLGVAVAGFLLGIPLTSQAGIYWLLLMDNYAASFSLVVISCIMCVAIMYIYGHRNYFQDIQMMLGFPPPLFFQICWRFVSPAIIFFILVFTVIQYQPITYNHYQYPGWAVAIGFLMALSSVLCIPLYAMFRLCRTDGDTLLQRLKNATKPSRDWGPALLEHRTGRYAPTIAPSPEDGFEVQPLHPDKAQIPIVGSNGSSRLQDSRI
USP14: Ubiquitin carboxyl-terminal hydrolase 14 (USP14, Homo sapiens, UniProt P54578)
Chain of UniProt P54578 (whole entry, looked up): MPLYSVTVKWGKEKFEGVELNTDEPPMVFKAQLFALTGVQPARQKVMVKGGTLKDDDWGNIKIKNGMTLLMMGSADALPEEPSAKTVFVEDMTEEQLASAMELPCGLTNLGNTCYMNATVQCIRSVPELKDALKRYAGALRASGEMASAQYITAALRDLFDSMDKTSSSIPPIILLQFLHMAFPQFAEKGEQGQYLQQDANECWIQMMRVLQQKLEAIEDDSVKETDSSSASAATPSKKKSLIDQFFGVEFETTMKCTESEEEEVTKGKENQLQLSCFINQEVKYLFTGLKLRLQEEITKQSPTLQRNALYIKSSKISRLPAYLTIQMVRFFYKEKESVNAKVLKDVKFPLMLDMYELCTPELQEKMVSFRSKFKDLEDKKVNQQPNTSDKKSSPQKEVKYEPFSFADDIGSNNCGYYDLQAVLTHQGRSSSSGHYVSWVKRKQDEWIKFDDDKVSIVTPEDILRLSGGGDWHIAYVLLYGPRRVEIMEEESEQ
Gria2/Glutamate receptor 3: Gria2/Glutamate receptor 3 (Rattus norvegicus, UniProt P19491+P19492)
Chain of UniProt P19492 (whole entry, looked up): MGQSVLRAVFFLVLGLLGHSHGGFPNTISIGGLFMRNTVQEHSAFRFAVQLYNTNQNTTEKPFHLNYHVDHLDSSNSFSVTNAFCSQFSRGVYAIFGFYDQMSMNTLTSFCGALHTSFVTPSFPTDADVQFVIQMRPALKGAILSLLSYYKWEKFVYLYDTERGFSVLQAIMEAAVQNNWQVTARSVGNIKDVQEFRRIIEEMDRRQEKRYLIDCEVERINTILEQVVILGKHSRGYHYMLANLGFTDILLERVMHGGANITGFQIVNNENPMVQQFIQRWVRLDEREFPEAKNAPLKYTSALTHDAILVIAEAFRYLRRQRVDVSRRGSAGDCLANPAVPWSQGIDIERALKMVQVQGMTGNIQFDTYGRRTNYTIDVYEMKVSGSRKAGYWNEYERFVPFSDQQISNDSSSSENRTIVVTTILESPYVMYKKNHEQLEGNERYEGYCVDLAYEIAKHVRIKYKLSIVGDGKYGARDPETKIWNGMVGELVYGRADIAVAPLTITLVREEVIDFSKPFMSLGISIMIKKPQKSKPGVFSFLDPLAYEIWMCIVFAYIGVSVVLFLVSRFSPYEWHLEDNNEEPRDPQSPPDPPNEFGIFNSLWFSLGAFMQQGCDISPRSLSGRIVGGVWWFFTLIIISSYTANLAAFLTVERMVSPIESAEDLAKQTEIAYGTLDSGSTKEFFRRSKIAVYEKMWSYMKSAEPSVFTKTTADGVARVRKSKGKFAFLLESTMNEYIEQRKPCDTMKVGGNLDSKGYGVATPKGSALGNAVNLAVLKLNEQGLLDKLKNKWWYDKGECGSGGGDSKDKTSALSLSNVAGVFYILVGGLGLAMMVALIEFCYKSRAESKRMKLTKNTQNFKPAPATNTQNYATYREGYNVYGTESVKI
Chain of UniProt P19491 (whole entry, looked up): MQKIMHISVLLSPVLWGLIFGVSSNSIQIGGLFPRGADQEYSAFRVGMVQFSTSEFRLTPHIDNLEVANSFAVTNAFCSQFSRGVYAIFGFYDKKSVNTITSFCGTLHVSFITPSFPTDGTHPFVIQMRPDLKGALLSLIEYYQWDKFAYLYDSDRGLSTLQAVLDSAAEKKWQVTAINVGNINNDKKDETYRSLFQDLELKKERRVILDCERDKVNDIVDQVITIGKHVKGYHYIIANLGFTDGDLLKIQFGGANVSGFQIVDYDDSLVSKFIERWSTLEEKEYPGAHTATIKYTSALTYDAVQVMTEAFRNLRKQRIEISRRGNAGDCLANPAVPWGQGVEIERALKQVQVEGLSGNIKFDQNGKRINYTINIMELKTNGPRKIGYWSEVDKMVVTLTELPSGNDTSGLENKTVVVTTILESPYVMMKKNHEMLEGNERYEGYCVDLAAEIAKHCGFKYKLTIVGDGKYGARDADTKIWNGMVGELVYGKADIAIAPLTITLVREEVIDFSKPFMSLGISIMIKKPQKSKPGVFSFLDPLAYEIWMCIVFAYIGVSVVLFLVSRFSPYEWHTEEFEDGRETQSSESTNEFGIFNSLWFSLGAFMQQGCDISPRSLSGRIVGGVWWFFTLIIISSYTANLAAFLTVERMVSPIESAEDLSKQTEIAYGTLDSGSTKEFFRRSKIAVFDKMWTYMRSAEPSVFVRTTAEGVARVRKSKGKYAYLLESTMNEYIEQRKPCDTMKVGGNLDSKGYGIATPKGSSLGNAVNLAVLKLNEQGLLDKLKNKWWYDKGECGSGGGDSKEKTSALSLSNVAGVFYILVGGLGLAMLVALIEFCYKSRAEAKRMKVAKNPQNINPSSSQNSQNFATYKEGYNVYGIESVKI
3-ketoacyl-CoA thiolase, mitochondrial: 3-ketoacyl-CoA thiolase, mitochondrial (Homo sapiens, UniProt P42765)
Chain of UniProt P42765 (whole entry, looked up): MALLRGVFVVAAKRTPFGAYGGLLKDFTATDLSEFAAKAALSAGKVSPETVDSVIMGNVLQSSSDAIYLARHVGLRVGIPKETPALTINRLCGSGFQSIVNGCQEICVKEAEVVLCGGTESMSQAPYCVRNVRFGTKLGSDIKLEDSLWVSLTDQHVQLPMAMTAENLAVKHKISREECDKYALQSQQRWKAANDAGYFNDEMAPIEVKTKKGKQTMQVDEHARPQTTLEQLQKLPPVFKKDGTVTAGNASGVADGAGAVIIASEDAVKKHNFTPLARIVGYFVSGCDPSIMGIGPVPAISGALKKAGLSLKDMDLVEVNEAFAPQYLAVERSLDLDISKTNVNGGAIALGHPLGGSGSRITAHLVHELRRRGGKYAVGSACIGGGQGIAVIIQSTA
MAPK8: Mitogen-activated protein kinase 8 (MAPK8, Homo sapiens, UniProt P45983)
Chain of UniProt P46089 (whole entry, unmodified, looked up): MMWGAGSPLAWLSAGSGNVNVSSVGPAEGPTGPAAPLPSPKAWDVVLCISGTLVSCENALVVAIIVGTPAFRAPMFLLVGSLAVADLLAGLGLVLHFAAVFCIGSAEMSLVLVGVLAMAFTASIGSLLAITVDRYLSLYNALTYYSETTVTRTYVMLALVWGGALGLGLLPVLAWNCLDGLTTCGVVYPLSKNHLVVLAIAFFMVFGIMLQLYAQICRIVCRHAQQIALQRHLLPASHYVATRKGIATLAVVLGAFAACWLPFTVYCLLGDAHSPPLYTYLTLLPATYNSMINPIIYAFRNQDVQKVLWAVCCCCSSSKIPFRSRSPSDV
Chain of UniProt P45983 (whole entry, looked up): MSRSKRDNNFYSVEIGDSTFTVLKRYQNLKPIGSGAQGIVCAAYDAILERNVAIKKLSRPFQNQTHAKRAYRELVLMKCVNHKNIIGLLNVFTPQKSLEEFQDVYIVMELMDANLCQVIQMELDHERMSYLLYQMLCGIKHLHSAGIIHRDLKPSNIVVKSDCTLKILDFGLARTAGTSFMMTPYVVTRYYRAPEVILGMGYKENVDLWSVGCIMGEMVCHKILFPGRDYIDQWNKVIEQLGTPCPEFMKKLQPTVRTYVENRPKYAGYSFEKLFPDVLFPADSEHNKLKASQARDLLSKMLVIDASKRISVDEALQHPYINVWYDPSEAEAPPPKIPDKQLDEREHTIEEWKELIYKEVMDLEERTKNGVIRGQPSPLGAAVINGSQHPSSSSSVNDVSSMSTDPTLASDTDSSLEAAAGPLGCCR
Chain of UniProt P08191 (whole entry, unmodified, looked up): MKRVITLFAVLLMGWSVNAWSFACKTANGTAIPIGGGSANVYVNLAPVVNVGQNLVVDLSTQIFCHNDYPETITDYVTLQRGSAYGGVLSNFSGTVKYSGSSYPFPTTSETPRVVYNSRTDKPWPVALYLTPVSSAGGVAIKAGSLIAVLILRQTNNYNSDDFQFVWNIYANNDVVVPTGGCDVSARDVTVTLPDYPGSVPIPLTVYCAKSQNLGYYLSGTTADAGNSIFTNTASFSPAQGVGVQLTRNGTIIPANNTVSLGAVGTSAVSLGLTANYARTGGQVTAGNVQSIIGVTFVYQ
Chain of UniProt Q9HB29 (whole entry, looked up): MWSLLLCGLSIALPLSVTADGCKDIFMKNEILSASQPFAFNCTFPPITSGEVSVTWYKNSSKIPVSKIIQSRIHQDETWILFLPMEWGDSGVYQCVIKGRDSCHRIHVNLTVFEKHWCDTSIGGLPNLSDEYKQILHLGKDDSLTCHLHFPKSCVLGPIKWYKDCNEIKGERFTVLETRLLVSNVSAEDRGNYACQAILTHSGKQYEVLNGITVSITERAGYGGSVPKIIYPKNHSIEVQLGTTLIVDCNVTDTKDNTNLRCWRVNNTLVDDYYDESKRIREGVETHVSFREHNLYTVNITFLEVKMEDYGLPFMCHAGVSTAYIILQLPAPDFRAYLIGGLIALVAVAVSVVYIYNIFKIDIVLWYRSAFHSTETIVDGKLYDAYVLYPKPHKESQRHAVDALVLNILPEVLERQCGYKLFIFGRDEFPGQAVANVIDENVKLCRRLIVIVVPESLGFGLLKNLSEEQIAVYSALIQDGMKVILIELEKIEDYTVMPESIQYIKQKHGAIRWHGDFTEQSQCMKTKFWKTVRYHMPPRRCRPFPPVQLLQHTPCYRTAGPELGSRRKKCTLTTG

Compound = Cc1cc(=O)oc2cc(NC(=O)CCCCCCC(=O)NO)ccc12; target = HDAC8 (Homo sapiens, UniProt Q9BY41); assay = ITC; system = phosphate buffer; conditions = concentration not given, pH 7.5; measurement = binding stoichiometry; value = 0.8
Compound = COc1ccc(C(OCCNCc2ccc(F)c(O)c2F)(c2ccc(OC)cc2)c2ccc(OC)cc2)cc1; target = SLC6A9; assay = cell-free assay; conditions = 1 µM; measurement = remaining signal; value = 104%
Compound = C#CCN1CCN(c2nc(N3CCC(CCOc4cc(-c5scnc5C)ccc4CNC(=O)[C@@H]4C[C@@H](O)CN4C(=O)[C@@H](NC(=O)C4(F)CC4)C(C)(C)C)CC3)nc(N3CCN(C(=O)C4CC4)C3)n2)CC1=O; target = VHL/BRD9, with Elongin B/C (Homo sapiens, UniProt P40337+Q9H8M2); assay = native mass spectrometry; conditions = 5 µM, added: BRD9 and VCB at 5 µM; how to read = reference: unbound BRD9; measurement = ternary complex formation; value = 0%
Compound = CCOC(=O)C1CCCN(CCOC(c2ccc(OC)cc2)(c2ccc(OC)cc2)c2ccc(C(C)=O)cc2)C1 (stereo not drawn); target = SLC6A9; assay = cell-free assay; conditions = 1 µM; measurement = remaining signal; value = 91.1%
Compound = CC(=O)N1CCN(CCN2C(C)=CC(=C(C#N)C#N)C=C2C)CC1; target = USP14; assay = enzyme activity, inhibitor; conditions = 17 µM; measurement = inhibition; value = 3%
Compound = O=C1c2sc(-c3ccc(N4CCC(CO)CC4)nc3F)nc2CCN1c1cccnc1; target = TAR DNA-binding protein 43, aggregated (TARDBP, Homo sapiens, UniProt Q13148); assay = radioligand binding; system = control brain sarkosyl-insoluble extract; conditions = 142.86 nM; measurement = specific binding; value = -0.362 nM
Compound = CC(C)Oc1cc(Cl)ccc1CNc1cc(-c2ccccc2)nc2ncnn12; target = GPR3 (Homo sapiens, UniProt P46089, M156A); assay = cAMP level, cAMP GloSensor; conditions = 100 nM; how to read = higher = more cAMP; measurement = cAMP luminescence; value = 28100 a.u. and 29700 a.u. and 31200 a.u. and 42300 a.u.
Compound = COC(=O)Cc1cc2c(cc1C(=O)c1ccccc1)OCO2; target = Gria2/Glutamate receptor 3; assay = glutamate-evoked current, whole-cell patch clamp; system = HEK-293T; conditions = concentration not given, glutamate alone after washout, added: glutamate; measurement = current amplitude after recovery; value = 475 ± 43 pA
Compound = COC(=O)[C@@]1(Cc2ccccc2)C=C(C(=O)OC(C)(C)C)C(=O)CC1; target = MAPK14 (Homo sapiens, UniProt Q16539, C119V); assay = peptide binding, fluorescence polarization; conditions = 62.5 µM; measurement = fraction bound; value = 0.153
Compound = C#CCCCCNC(=O)c1ccc(N(C(=O)C=C)c2ccc(Br)cc2)cc1; target = 3-ketoacyl-CoA thiolase, mitochondrial; assay = mass spectrometry profiling; system = H460 cell lysate; conditions = 100 µM over 10 µM, UniProt P42765; how to read = reference: high over low concentration; measurement = reactivity ratio; value = 3.86
Compound = CC(C)[C@@H]1NC(=O)[C@H](Cc2ccccc2)NC(=O)CSC[C@@H](C(N)=O)NC(=O)[C@H](CCC(=O)O)NC(=O)[C@H](CO)NC(=O)[C@H](Cc2c[nH]c3cccc(Cl)c23)NC(=O)[C@H](C2CCCCC2)NC(=O)[C@H](C(C)C)NC(=O)[C@H](Cc2ccc(O)cc2)NC(=O)[C@H](CC(=O)O)NC(=O)[C@H](Cc2c[nH]c3ccccc23)NC(=O)[C@H](Cc2ccc(N)nc2)NC(=O)[C@H](Cc2c[nH]c3ccc(Cl)cc23)NC(=O)[C@H](CCC(=O)O)NC1=O; target = Interleukin-1 receptor-like 2 (IL1RL2, Homo sapiens, UniProt Q9HB29); assay = reporter gene (SEAP), inhibitor, HEK-Blue IL-36R reporter; system = HEK-Blue IL-36R cells; conditions = 0.005 µM, 6 h, added: IL-36γ 1 ng/mL; measurement = remaining activity; value = 109%
Compound = CC[C@H]1CN([C@@H](CC)c2ccc(C(F)(F)F)cc2)[C@H](CC)CN1c1nc(=O)n(C)c2ccc(C#N)nc12; target = Diacylglycerol kinase theta (DGKQ, Homo sapiens, UniProt P52824); assay = inhibitor; conditions = concentration not given, type V DGK; measurement = kinase activity; value = inactive
Compound = O[C@@H]1Cc2cccc(OCCF)c2C[C@H]1N1CCC(c2ccccc2)CC1; target = SIGMAR1 (Homo sapiens, UniProt Q99720); system = rat liver (sigma2), human sigma1; how to read = reference: Ki sigma2 over Ki sigma1; measurement = selectivity ratio; value = 0.91
Compound = Cc1ncc2[nH]c(=O)n(-c3cnc(Oc4cccc5c4C(C)(C)CO5)c(Cl)c3C)c2n1; target = KCNC1 (Homo sapiens, UniProt P48547); assay = potassium current, manual patch clamp; conditions = 1 µM, hyperpolarizing -100 mV; measurement = area under tail current; value = increased
Compound = COC(=O)[C@@]1(C)C=C(C(=O)Nc2cccc(C(=O)Nc3ccc(Nc4nccc(-c5cccnc5)n4)c(C)c3)c2)C(=O)CC1; target = MAPK8; assay = enzyme activity, inhibitor; conditions = 0.5487 µM, 0 h, unit not given, added: GSH 10 mM pre-incubation; how to read = reference: vehicle; measurement = remaining activity; value = 0.11
Compound = CCCCCCCCCCCCC/C=C/C=O; target = 3-ketoacyl-CoA thiolase, mitochondrial; assay = competitive isoTOP-ABPP, item: ACAA2 cysteine peptide; system = Ramos soluble proteome; conditions = 100 µM, added: iodoacetamide probe; how to read = reference: DMSO over compound-treated, higher = stronger cysteine blockade; measurement = isoTOP-ABPP competition ratio; value = 0.9
Compound = [O-][n+]1c2c([n+]([O-])c3ccccc31)CCC2; target = USP14; assay = enzyme activity, inhibitor; conditions = 17 µM; measurement = inhibition; value = 26%
Compound = CCCCCCCO[C@H]1[C@H](OC)O[C@H](CO)[C@@H](O)[C@H](O)[C@@H]1O; target = Type 1 fimbrin D-mannose specific adhesin, lectin domain (fimH, Escherichia coli K-12, UniProt P08191); assay = binding, isothermal titration calorimetry; conditions = 25 °C; measurement = ΔH; value = -6.6 kcal/mol and -6.76 kcal/mol
Compound = CC1CCC[S+](c2cc(O)ccc2O)C1 (stereo not drawn); target = USP14; assay = enzyme activity, inhibitor; conditions = 17 µM; measurement = inhibition; value = 81%
Compound = Cc1cc(C)cc(COc2cc3c(cc2OCc2cc(C)cc(C)c2)C2CC(O)(Cc4cn(CCOCCOCCNC(=O)CCCCC5SCC6NC(=O)NC65)nn4)CC(C)N2CC3)c1 (stereo not drawn); target = Rab GDP dissociation inhibitor beta (Homo sapiens, UniProt P50395); assay = biotinylated probe pull-down, item: GDI2; conditions = 10 µM probe; how to read = reference: heavy over light; measurement = SILAC ratio; value = 4.05
Compound = CC(C)C[C@@H]1NC(=O)CN(C)C(=O)[C@H](Cc2c[nH]c3ccccc23)NC(=O)[C@H](CCC(=O)O)NC(=O)[C@H](Cc2ccccc2)N(C)C(=O)[C@H](Cc2ccccc2)NC(=O)CSC[C@@H](C(N)=O)NC(=O)[C@H](CCCCN)NC(=O)[C@H](C(C)C)NC(=O)[C@H](Cc2ccc(O)cc2)NC(=O)[C@H](Cc2ccc(O)cc2)NC(=O)[C@H](C(C)C)NC(=O)[C@H](Cc2ccccc2)N(C)C(=O)[C@H](CCCNC(=N)N)NC1=O; target = AT-rich interactive domain-containing protein 1B (ARID1B, Homo sapiens, UniProt Q8NFD5, I2161S); assay = differential scanning fluorimetry; conditions = 5 µM, I2078S mutant; measurement = ΔTm; value = 6 ± 1 °C
Compound = COC(=O)Cc1cc2c(cc1C(=O)c1ccccc1Cl)OCO2; target = Gria2/Glutamate receptor 3; assay = glutamate-evoked current, whole-cell patch clamp; system = HEK-293T; conditions = concentration not given, glutamate alone after washout, added: glutamate; measurement = current amplitude after recovery; value = 496 ± 35 pA
Compound = CC[C@H](C)[C@H](NC(=O)[C@@H](NC(=O)[C@@H](NC(=O)[C@@H](NC(=O)[C@H](CCCNC(=N)N)NC(=O)[C@H](CCC(=O)O)NC(=O)[C@H](CCC(=O)O)NC(=O)[C@H](C)NC(=O)[C@H](CCC(=O)O)NC(=O)CNC(=O)[C@H](C)NC(=O)CN)C(C)C)C(C)C)C(C)C)C(=O)N[C@@H](CC(=O)O)C(=O)N[C@@H](CC(=O)O)C(=O)N[C@@H](CC(=O)O)C(=O)N[C@@H](CCC(=O)O)C(=O)N[C@@H](CC(=O)O)C(=O)N[C@@H](CC(=O)O)C(=O)N[C@@H](CC(=O)O)C(=O)N[C@@H](C)C(=O)N[C@@H](CCC(=O)O)C(=O)N[C@@H](CC(N)=O)C(=O)N[C@@H](CO)C(=O)N[C@@H](CO)C(=O)N[C@@H](CO)C(=O)N[C@@H](CCCNC(=N)N)C(=O)N[C@@H](Cc1ccc(O)cc1)C(=O)O; target = Small ubiquitin-related modifier 1, residues 17-97 (Homo sapiens, UniProt P63165, C52A); assay = isothermal titration calorimetry; conditions = pH 7.4, N-terminally truncated SUMO1; measurement = -TΔS; value = -15.1 ± 0.1 kcal/mol
Compound = COC(=O)[C@@]1(C(C)C)C=C(C(=O)Nc2cccc(C(=O)Nc3ccc(Nc4nccc(-c5cccnc5)n4)c(C)c3)c2)C(=O)CC1; target = MAPK8; assay = kinase activity, inhibitor; conditions = 0.006774 µM, unit not given, added: 10 mM glutathione; how to read = reference: no inhibitor; measurement = remaining activity; value = 0.984

For quick reference, copied from above:
Compound = Cc1ncc2[nH]c(=O)n(-c3cnc(Oc4cccc5c4C(C)(C)CO5)c(Cl)c3C)c2n1; target = KCNC1 (Homo sapiens, UniProt P48547); assay = potassium current, manual patch clamp; conditions = 1 µM, hyperpolarizing -100 mV; measurement = area under tail current; value = increased
Compound = CC1CCC[S+](c2cc(O)ccc2O)C1 (stereo not drawn); target = USP14; assay = enzyme activity, inhibitor; conditions = 17 µM; measurement = inhibition; value = 81%
Compound = CC[C@H](C)[C@H](NC(=O)[C@@H](NC(=O)[C@@H](NC(=O)[C@@H](NC(=O)[C@H](CCCNC(=N)N)NC(=O)[C@H](CCC(=O)O)NC(=O)[C@H](CCC(=O)O)NC(=O)[C@H](C)NC(=O)[C@H](CCC(=O)O)NC(=O)CNC(=O)[C@H](C)NC(=O)CN)C(C)C)C(C)C)C(C)C)C(=O)N[C@@H](CC(=O)O)C(=O)N[C@@H](CC(=O)O)C(=O)N[C@@H](CC(=O)O)C(=O)N[C@@H](CCC(=O)O)C(=O)N[C@@H](CC(=O)O)C(=O)N[C@@H](CC(=O)O)C(=O)N[C@@H](CC(=O)O)C(=O)N[C@@H](C)C(=O)N[C@@H](CCC(=O)O)C(=O)N[C@@H](CC(N)=O)C(=O)N[C@@H](CO)C(=O)N[C@@H](CO)C(=O)N[C@@H](CO)C(=O)N[C@@H](CCCNC(=N)N)C(=O)N[C@@H](Cc1ccc(O)cc1)C(=O)O; target = Small ubiquitin-related modifier 1, residues 17-97 (Homo sapiens, UniProt P63165, C52A); assay = isothermal titration calorimetry; conditions = pH 7.4, N-terminally truncated SUMO1; measurement = -TΔS; value = -15.1 ± 0.1 kcal/mol
